Assay results gathered from unrelated publications.
Each line is one published result; not all experiments were run side by side. Numbers after ± are the reported error.

The half-life of `COc1ccsc1CNCC[C@@]1(c2ccccn2)CCOC2(CCCC2)C1` is reported as 140 min (healthy human, normal renal function, plasma; intravenous, 1 mg single dose, geometric mean).
`CN[C@@H]1C[C@H]2O[C@@](C)([C@@H]1OC)n1c3ccccc3c3c4c(c5c6ccccc6n2c5c31)C(=O)N[C@@H]4O` has a half-life of 18800 min (human patients; intravenous infusion, 17 mg/m^2/24 h, 72 h infusion, cycle 1, mean, added: prednisone).
`Oc1ccc2ccc3c4ccccc4cc4ccc1c2c43` has a half-life of 137 ± 30.6 min (UPLC-AMS; human, plasma; oral, 50 ng of [14C]-BaP).
`Cc1ncc(OC[C@@]2(c3cccc(F)c3)C[C@H]2C(=O)Nc2ccc(F)cn2)c(C)n1` has a half-life of 648 min (human, plasma; 10 mg, mean, added: rifampin 600 mg).
`CN(C)C/C=C/C(=O)Nc1cc2c(Nc3ccc(F)c(Cl)c3)ncnc2cc1O[C@H]1CCOC1` gave a half-life of 2000 min (human; 65 mg).
With `CC[C@@]1(O)C(=O)OCc2c1cc1n(c2=O)Cc2cc3c(CN(C)C)c(O)ccc3nc2-1` the half-life was 226 min (human patients; oral, 2.5 mg daily, 5 days, cycle 2 day 5, geometric mean, added: pazopanib 800 mg daily).
For `O[C@H]1CCCN[C@@H]1CCCn1cnc2c(Cl)c(Cl)ccc21`, the half-life was 177 min (healthy human volunteers, plasma; oral, 50 mg, day 1, multiple ascending dose).
For `COc1ccc(C[C@@H]2NC(=O)[C@H]([C@@H](C)O)NC(=O)[C@@H]3[C@@H]4CCN3C(=O)[C@@H]3Cc5cn(c6ccc(F)cc56)CCCCCCN(Cc5ccc(cc5)CCNC(=O)[C@]5(C)CCCN5C2=O)C(=O)CCC(=O)N[C@@H](C)C(=O)N[C@H](CNC(=O)CCCCC[N+](C)(C)C)C(=O)N[C@@H](Cc2cccc(c2)CNC(=O)CO4)C(=O)N3)cc1`, the half-life was 2110 min (healthy fasted humans, plasma; oral, 10 mg single dose, geometric mean, added: Labrasol 1800 mg).
`Oc1ccc2cc3ccc4cccc5ccc(c2c1)c3c45` has a half-life of 4060 ± 10000 min (UPLC-AMS; human, plasma; oral, 100 ng of [14C]-BaP).
For `O=c1[nH]c(Cc2ccccn2)nc2c1cnn2C1CCOCC1`, the half-life was 110 min (healthy male human, plasma; oral, 10 mg, geometric mean).
The half-life of `CC[C@H](C)[C@H](NC(=O)[C@H](CC(C)C)NC(=O)[C@H](Cc1c[nH]c2ccccc12)NC(=O)[C@H](CCC(N)=O)NC(=O)[C@@H](NC(=O)[C@H](Cc1ccccc1)NC(=O)[C@H](C)NC(=O)[C@H](CCCCNC(=O)COCCOCCNC(=O)COCCOCCNC(=O)CC[C@H](NC(=O)CCCCCCCCCCCCCCCCCCC(=O)O)C(=O)O)NC(=O)[C@H](CCC(N)=O)NC(=O)[C@H](C)NC(=O)[C@@H](NC(=O)[C@H](CCCCN)NC(=O)[C@H](CC(=O)O)NC(=O)[C@H](CC(C)C)NC(=O)C(C)(C)NC(=O)[C@@H](NC(=O)[C@H](CO)NC(=O)[C@H](Cc1ccc(O)cc1)NC(=O)[C@H](CC(=O)O)NC(=O)[C@H](CO)NC(=O)[C@@H](NC(=O)[C@H](Cc1ccccc1)NC(=O)[C@@H](NC(=O)CNC(=O)[C@H](CCC(=O)O)NC(=O)C(C)(C)NC(=O)[C@@H](N)Cc1ccc(O)cc1)[C@@H](C)O)[C@@H](C)O)[C@@H](C)CC)[C@@H](C)CC)C(C)C)C(=O)N[C@@H](C)C(=O)NCC(=O)NCC(=O)N1CCC[C@H]1C(=O)N[C@@H](CO)C(=O)N[C@@H](CO)C(=O)NCC(=O)N[C@@H](C)C(=O)N1CCC[C@H]1C(=O)N1CCC[C@H]1C(=O)N1CCC[C@H]1C(=O)N[C@@H](CO)C(N)=O` is reported as 7020 min (human, severe renal impairment, plasma; subcutaneous, 5 mg single dose, geometric mean).

Some of these lines once more:
`Oc1ccc2ccc3c4ccccc4cc4ccc1c2c43` has a half-life of 137 ± 30.6 min (UPLC-AMS; human, plasma; oral, 50 ng of [14C]-BaP).
